Measurements pooled from the literature.
Every numbered part comes from another study and shows a few of its results, in no order.

Set 1
Target: Sal-like protein 4, full length isoform B (SALL4, Homo sapiens, UniProt Q9UJQ4-2, residues 1-616)
Method: universal PBM
Form: double-stranded DNA, one strand shown
Medium: in vitro
Tested at: not given
Setting: 8-mer, flanks averaged, mean of replicates
Direction: higher = stronger binding
Target sequence (chain): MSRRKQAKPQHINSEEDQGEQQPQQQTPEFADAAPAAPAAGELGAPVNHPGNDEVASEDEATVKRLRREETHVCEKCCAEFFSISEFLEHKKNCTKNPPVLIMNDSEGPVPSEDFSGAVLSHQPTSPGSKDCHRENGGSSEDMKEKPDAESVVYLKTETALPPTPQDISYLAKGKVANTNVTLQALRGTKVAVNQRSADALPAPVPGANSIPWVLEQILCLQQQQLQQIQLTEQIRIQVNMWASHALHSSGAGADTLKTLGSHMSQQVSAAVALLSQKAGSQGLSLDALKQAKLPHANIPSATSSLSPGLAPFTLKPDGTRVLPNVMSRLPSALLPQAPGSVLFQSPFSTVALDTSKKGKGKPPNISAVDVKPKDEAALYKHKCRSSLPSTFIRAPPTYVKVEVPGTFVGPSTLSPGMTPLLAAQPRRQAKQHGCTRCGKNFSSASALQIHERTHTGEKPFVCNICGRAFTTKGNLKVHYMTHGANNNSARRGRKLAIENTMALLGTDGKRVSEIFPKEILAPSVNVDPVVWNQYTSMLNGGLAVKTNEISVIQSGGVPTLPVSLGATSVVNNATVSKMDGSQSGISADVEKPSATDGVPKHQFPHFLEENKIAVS
The E-score of `AAATTAAT` is reported as 0.443.
`GCTATGCA` has an E-score of -0.0153.
The E-score of `GAGTAATC` is reported as 0.165.
The E-score of `CCCGTAGG` is reported as -0.337.
For `ATAAGAGG`, the E-score was 0.0814.
`CGTCAGTC` has an E-score of -0.182.
The E-score of `CGGGATAC` is reported as -0.31.
For `CTACATGC`, the E-score was 0.135.
`CTCTGTTA` has an E-score of -0.023.
With `AGCCTGCC` the E-score was -0.247.
`AACCGAAG` has an E-score of 0.0647.
With `ACGTTGAC` the E-score was -0.0377.
`AAGCTCAT` has an E-score of -0.115.
With `ATAGCAGG` the E-score was -0.0191.
`CACTGGCC` gave an E-score of -0.181.
With `ATGATTTG` the E-score was 0.146.
With `ACGGAGCA` the E-score was -0.00681.
For `GACGCTCA`, the E-score was -0.293.
The E-score of `CCCGCCTC` is reported as -0.35.
With `GACCTCAC` the E-score was -0.118.
With `AGCAAAAG` the E-score was 0.0735.
For `CTGGCCTA`, the E-score was -0.114.
`GAAATGCC` has an E-score of -0.0952.

Set 2
Target: RING finger protein unkempt homolog, zinc fingers 1-6, GST-SBP tag (UNK, Homo sapiens, UniProt Q9C0B0, residues 30-357)
Method: RNA Bind-n-Seq
Form: RNA
Medium: in vitro
Tested at: not given
Setting: RNA with constant flanks, human and mouse sites, ends assumed
Relative to: input RNA pool
Direction: higher = stronger binding
Constant ends, left off below: GGGAGUUCUACAGUCCGACGAUC … CAACAGAGGAUUGAGCAUCA
Construct (chain): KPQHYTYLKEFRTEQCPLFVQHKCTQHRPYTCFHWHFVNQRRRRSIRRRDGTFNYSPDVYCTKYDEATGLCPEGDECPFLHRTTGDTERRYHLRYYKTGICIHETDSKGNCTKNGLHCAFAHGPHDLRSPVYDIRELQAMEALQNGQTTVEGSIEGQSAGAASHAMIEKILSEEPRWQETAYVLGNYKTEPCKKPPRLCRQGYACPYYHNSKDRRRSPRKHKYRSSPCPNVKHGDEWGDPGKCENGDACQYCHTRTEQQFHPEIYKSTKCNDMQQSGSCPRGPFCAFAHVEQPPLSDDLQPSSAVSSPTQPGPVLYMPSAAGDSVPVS
For `AUAGAUGCAGUGAAGUUGUUAAAUAACGAAAAUGUUGCCCCUUUUCAUUCAGAGCUAACUGAAAAGUCAUCACCAGAAGAAACACUAAAUGAAUUAACUGGAAGACUAUCAAAUAAUCAU`, the bound/input enrichment was 0.231 ratio.
For `GGAAUUUACAUGGUCUAUUGCCGAAAACACAAGAAAACUGCACAUAACUCCGAAGCUGAUUUAGAAGAAAGUUUUAAUGAACAUGAACUGGAGCCCUCAUCACCUAAAAGUAAAAAGAAA`, the bound/input enrichment was 0.486 ratio.
`UUUACUGUCACCCUCAUCAGCAAAGACAGGCUAUGCCUCUCGAAUGAAGAACAAAUUAUCAUCCAUGACUUCAUCCUUGAAGCUACACAGGAUGACUACGUACUAGAGGUUCGGCACUUU` has a bound/input enrichment of 0.121 ratio.
`CGGGAGUCCCAGUGCCACAUCCUGGAAGAUCUGCUUGGCUGCCAUUAACUCUUCCUGGAAUUUAGAAGUUUUUGUUAUUUUUACUUUUAUACAGAUUGGUUUUAAGCUCUUGCCUUCUAC` has a bound/input enrichment of 2.19 ratio.
The bound/input enrichment of `GCUCUGGGCUUUUCUGAUGUGGAUCACACCUAUGCUCAAAGAACUCAGCUCUUUGACACCUUAGUAAAUUUCUUUCCUGACAGCAUGACUCCUCCUAAAGGCAACCUGGUAGACCUCAUC` is reported as 3.2 ratio.
The bound/input enrichment of `GGGACCCCGUGUCAUCGCCCAGGCCGAGCACGGAAAUCUACUUUCUUCAAUGUGUUAACCAAUAGUCAGGCUUCAGCAGAAAACUUCCCGUUCUGCACUAUUGAUCCUAAUGAGAGCAGA` is reported as 0.269 ratio.
For `GGAAAUAAAGAAGAUUAUGACCUUUCAAAGAUGAGAGACUUCAUCAAUAAACAAGCUGAUGCUUAUGUGGAGAAAGGCAUCCUUGACAAGGAAGAAGCCGAGGCCAUCAAGCGCAUUUAU`, the bound/input enrichment was 0.085 ratio.
`AAUCCCGAAGCUAUUACCCUUCCAGGAAAUGCUUGGAGCCAUAUGAACAUUCAGGAAGCUGAUUCCCGCGUAAUACAGAGGUAUCGACAGAUUUAACAGUGCCAAGAGCUGCCAAGAGAC` gave a bound/input enrichment of 0.184 ratio.
For `AGUUCCAGAACCAGAAUCAGAAAUGAAGAUGAGACUACCAAGACGAGCCAAAACCGCAGCACUAGAAAAAAGUAAACUUAACCUUGCCCAAUUUCUCAAUGAAGAUCUAAGUUAGGAAAG`, the bound/input enrichment was 2.6 ratio.
For `AGUUUAUCUCCUGAACAUAAUUAUAAUUUUGAUAUUAACACAAUAGGUCAGACUGGAUUUUGUAGCUUUUAUUCUGGAAGUCAGUUUGUCCCAGCUGAUCAGAAUUUGCCUCAGAAGUUC`, the bound/input enrichment was 1.94 ratio.
For `GUUGAUGCAGACUCUCUUGCCGAGGUAGAUGAUGGAAUGGCUUCCCGUCAGGGUUCUCCCAGUAGAACCUUUGGUCUGAGUCUGUCUACGGAUUCUUCGGCAGUAGGGGCUGUUGCUUCU`, the bound/input enrichment was 0.313 ratio.

Set 3
Target: Histone acetyltransferase KAT6A, both winged helices, GST fusion (KAT6A, Homo sapiens, UniProt Q92794, residues 1-181)
Method: protein binding microarray
Form: double-stranded DNA, one strand shown
Medium: in vitro
Tested at: not given
Setting: 8-mer, flanks averaged, mean of 2 arrays, mostly near background
Relative to: not given
Direction: higher = stronger binding
Target sequence (chain): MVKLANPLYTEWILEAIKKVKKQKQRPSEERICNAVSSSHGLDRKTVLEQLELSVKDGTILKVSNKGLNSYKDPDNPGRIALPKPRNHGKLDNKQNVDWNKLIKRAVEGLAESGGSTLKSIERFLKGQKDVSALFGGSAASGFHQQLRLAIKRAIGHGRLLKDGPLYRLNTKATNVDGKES
`CGAGAAAC` gave an E-score of 0.00535.
For `GGCTGGGA`, the E-score was -0.09.
For `CAATGAAC`, the E-score was 0.0197.
The E-score of `GCTGTGCC` is reported as -0.033.
The E-score of `CCCGCAAG` is reported as 0.0919.
The E-score of `GTCTTAAC` is reported as -0.132.
`ACGTTGGG` gave an E-score of -0.275.
With `ATGGTAAG` the E-score was -0.0102.
With `AATGCTCA` the E-score was -0.137.
`CTTCACGA` gave an E-score of -0.0644.
With `CTTGCCAC` the E-score was -0.0838.
With `CACTACGC` the E-score was 0.12.
For `CGAAGGTA`, the E-score was -0.103.
The E-score of `CGGAGATC` is reported as 0.0492.
For `CCAAGATC`, the E-score was -0.0234.
`CCGTATCG` has an E-score of 0.261.
The E-score of `ACTTACAA` is reported as -0.0369.

Set 4
Target: Homeobox protein Hox-B13, full length (HOXB13, Homo sapiens, UniProt Q92826, residues 1-284)
UniProt Q92826, sequence (whole entry, looked up): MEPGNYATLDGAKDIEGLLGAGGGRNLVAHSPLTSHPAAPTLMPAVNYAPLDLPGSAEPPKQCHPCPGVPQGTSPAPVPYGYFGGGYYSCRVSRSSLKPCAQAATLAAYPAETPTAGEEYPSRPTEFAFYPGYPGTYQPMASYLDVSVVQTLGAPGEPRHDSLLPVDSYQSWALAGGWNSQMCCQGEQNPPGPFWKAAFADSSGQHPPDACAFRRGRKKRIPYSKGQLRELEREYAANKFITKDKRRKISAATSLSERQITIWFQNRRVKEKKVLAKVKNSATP
Method: protein-binding microarray
Form: hairpin DNA
Medium: in vitro
Tested at: not given
Setting: whole hairpin DNA, median over replicate spots
Relative to: not given
Direction: higher = stronger binding
The median fluorescence of `GAGGCCGTTTTACGCGGGCCTCCTGGCCCGCGTAAAACGGCCTCACACTC (5mC at 15 29)` is reported as 4230 a.u.
`GAGGCCATTTTATTGGGGCCTCCTGGCCCCAATAAAATGGCCTCACACTC` has a median fluorescence of 5100 a.u.
The median fluorescence of `GAGGCCGTCTTACGAGGGCCTCCTGGCCCTCGTAAGACGGCCTCACACTC` is reported as 4200 a.u.
`GAGGCCGCGTTACGAGGGCCTCCTGGCCCTCGTAACGCGGCCTCACACTC (5mC at 8 36)` gave a median fluorescence of 4610 a.u.
With `GAGGCCGTTTTACCGGGGCCTCCTGGCCCCGGTAAAACGGCCTCACACTC (5mC at 14)` the median fluorescence was 4250 a.u.
`GAGGCCGTTTCGCGAGGGCCTCCTGGCCCTCGCGAAACGGCCTCACACTC (5mC at 33)` gave a median fluorescence of 4120 a.u.
With `GAGGCCGTTTTACGAGCGCCTCCTGGCGCTCGTAAAACGGCCTCACACTC` the median fluorescence was 5500 a.u.
For `GAGGCCGTTTTACCAGGGCCTCCTGGCCCTGGTAAAACGGCCTCACACTC`, the median fluorescence was 4160 a.u.
`GAGGCCGCGTTATTGGGGCCTCCTGGCCCCAATAACGCGGCCTCACACTC (5mC at 36)` has a median fluorescence of 4290 a.u.
With `GAGGCCGTTTTATGGGGGCCTCCTGGCCCCCATAAAACGGCCTCACACTC` the median fluorescence was 4960 a.u.
With `GAGGCCGTTTTAGTGGGGCCTCCTGGCCCCACTAAAACGGCCTCACACTC (5mC at 32)` the median fluorescence was 4550 a.u.
`GAGGCCCTTTTATTGGGGCCTCCTGGCCCCAATAAAAGGGCCTCACACTC` has a median fluorescence of 4460 a.u.
`GAGGCCGTTTCATTGGGGCCTCCTGGCCCCAATGAAACGGCCTCACACTC` has a median fluorescence of 4330 a.u.
With `GAGGCCGTTTCATTGGGGCCTCCTGGCCCCAATGAAACGGCCTCACACTC (5mC at 11)` the median fluorescence was 4440 a.u.
`GAGGCCGTATTATTGGGGCCTCCTGGCCCCAATAATACGGCCTCACACTC` gave a median fluorescence of 4570 a.u.
`GAGGCCGTGTTACGAGGGCCTCCTGGCCCTCGTAACACGGCCTCACACTC` has a median fluorescence of 4570 a.u.
`GAGGCCGTTTTACCGGGGCCTCCTGGCCCCGGTAAAACGGCCTCACACTC (5mC at 14 30)` has a median fluorescence of 4270 a.u.
With `GAGGCCGCGTTATTGGGGCCTCCTGGCCCCAATAACGCGGCCTCACACTC` the median fluorescence was 4500 a.u.
For `GAGGCCGTTTTATTGCGGCCTCCTGGCCGCAATAAAACGGCCTCACACTC (5mC at 28)`, the median fluorescence was 5040 a.u.

A few entries again (set 1):
For `ATAAGAGG`, the E-score was 0.0814.
`CGTCAGTC` has an E-score of -0.182.
The E-score of `CGGGATAC` is reported as -0.31.
For `CTACATGC`, the E-score was 0.135.
`CTCTGTTA` has an E-score of -0.023.
With `AGCCTGCC` the E-score was -0.247.
